Published values pooled from the literature.
Each numbered part is a random draw from the data of one study; scales do not carry over between parts. Numbers after ± are the reported error.
UniProt P34914, sequence (whole entry, looked up): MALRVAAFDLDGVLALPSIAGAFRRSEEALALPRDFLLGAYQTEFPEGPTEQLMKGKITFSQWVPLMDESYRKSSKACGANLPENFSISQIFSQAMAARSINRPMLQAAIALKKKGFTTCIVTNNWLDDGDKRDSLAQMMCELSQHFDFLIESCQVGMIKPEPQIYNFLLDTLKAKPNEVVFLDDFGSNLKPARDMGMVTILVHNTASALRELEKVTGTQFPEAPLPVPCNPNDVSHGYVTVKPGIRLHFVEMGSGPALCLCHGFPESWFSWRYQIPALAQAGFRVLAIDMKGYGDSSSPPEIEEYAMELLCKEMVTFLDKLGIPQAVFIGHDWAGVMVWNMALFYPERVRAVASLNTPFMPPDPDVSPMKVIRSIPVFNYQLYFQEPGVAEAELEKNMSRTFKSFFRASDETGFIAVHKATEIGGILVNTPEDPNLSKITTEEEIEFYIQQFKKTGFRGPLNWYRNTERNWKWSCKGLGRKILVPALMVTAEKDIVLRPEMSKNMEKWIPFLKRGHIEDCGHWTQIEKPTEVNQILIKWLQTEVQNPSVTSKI

Sample 1
Compound: Cc1cc(OCc2nnc(SC3CCCC3)n2-c2cccnc2)ccc1-c1ccc(S(C)(=O)=O)cc1
cell line	GI50
OVCAR-5	1820 nM
HCT-15	1240 nM
MDA-MB-435	1020 nM

Mixed results
Structure (SMILES)	target or system	test	system	conditions	measurement	value
CC[C@@H]1C(=O)N(C)c2cnc(Nc3ccc(C(=O)NC4CCN(C)CC4)cc3OC)nc2N1C1CCCC1	Bromodomain-containing protein 4, BD1 (BRD4, Homo sapiens, UniProt O60885)	thermal stabilisation, thermal shift	–	10 µM	ΔTm	6.97 ± 0.03 °C
O=C(Nc1ccc(Cl)cc1)NC1CCN(c2c(NS(=O)(=O)Cc3ccccc3)c(=O)c2=O)CC1	Bifunctional epoxide hydrolase 2 (Ephx2, Mus musculus, UniProt P34914)	–	–	–	IC50	4090 ± 432 nM
N#Cc1ccc(-c2csc(CNC(=O)C34CC(CN(C(=O)COCCF)C3)C4)n2)cc1	–	–	Sprague Dawley rats male, plasma	oral, 3 mg/kg	Cmax	2500 nM

A few entries again (sample 1):
cell line	GI50
HCT-15	1240 nM
